Measurements gathered from unrelated publications.
Protocols differ between the studies behind these lines. ± gives the spread as reported.
Organism: Escherichia coli

CC[C@H](C)[C@@H]1NC(=O)[C@H](CCCCN)NC(=O)[C@@H](NC(=O)[C@H](C)NC(=O)[C@@H](NC(=O)[C@H](CC(C)C)NC(=O)[C@H](CC(N)=O)NC(=O)[C@@H](NC(=O)CNC(=O)[C@H](CC(C)C)NC(=O)[C@H](CCCNC(=N)N)NC(=O)[C@H](C)NC(=O)[C@H](CC(C)C)NC(=O)[C@H](CC(=O)O)NC(=O)[C@H](CCCCN)NC(=O)CNC(=O)[C@H](CC(C)C)NC(=O)CNC(=O)[C@H](CCCCN)NC(=O)[C@H](CO)NC(=O)[C@H](C)NC(=O)[C@H](Cc2ccccc2)NC(=O)[C@H](CCCCN)NC(=O)[C@H](C)NC(=O)[C@@H](NC(=O)CNC(=O)[C@H](CCCNC(=N)N)NC(=O)[C@H](Cc2ccccc2)NC(=O)[C@@H](NC(=O)[C@H](CO)NC(=O)[C@H](CO)NC(=O)[C@H](Cc2ccccc2)NC(=O)CN)[C@@H](C)CC)C(C)C)C(C)C)C(C)C)CSSC[C@@H](C(=O)O)NC(=O)[C@H](CCC(N)=O)NC(=O)[C@H](CCCCN)NC(=O)[C@H](CO)NC1=O
time to complete killing (ATCC 8739; 4 × MIC): 10 min

CC[C@H](C)[C@H](N)C(=O)N[C@@H](CC(C)C)C(=O)N[C@@H](CO)C(=O)N[C@@H](C)C(=O)N[C@@H](C)C(=O)N[C@@H](Cc1ccc(O)cc1)C(=O)N[C@@H](CO)C(=O)NCC(=O)N[C@H](C(=O)N[C@H](C(=O)N[C@@H](CO)C(=O)N[C@@H](CC(C)C)C(=O)N[C@H](C(=O)NCCCCCC(=O)N[C@@H](Cc1c[nH]c2ccccc12)C(N)=O)[C@@H](C)CC)[C@@H](C)CC)[C@@H](C)CC
growth inhibitory concentration (pb3): ≥ 10 µM

CNC(=O)c1cccc(-c2ccc(O[C@H]3O[C@H](CO)[C@@H](O)[C@H](O)[C@@H]3O)c(C)c2)c1
IC50 (biofilm formation, inhibitor; uropathogenic UTI89): 0.16 µM

CC(=NNC(=N)N)c1nnn(-c2ccc(C#CC3(O)CCCCC3)cc2)c1C
selectivity index (WI-38, JW55031 tolC mutant; baseline: WI-38 IC50 over MIC): 2.19

CC[C@H](C)[C@H](NC(=O)[C@H](CCCCN)NC(=O)[C@H](CCCCN)NC(=O)[C@H](CC(C)C)NC(=O)[C@H](CCCCN)NC(=O)[C@H](CCC(=O)O)NC(=O)[C@H](CCCCN)NC(=O)[C@@H](NC(=O)[C@H](CCCCN)NC(=O)[C@H](CC(N)=O)NC(=O)[C@H](CCCNC(=N)N)NC(=O)[C@H](Cc1ccccc1)NC(=O)[C@H](CCCCN)NC(=O)[C@H](CCCNC(=N)N)NC(=O)[C@H](CC(C)C)NC(=O)[C@H](CCCNC(=N)N)NC(=O)[C@H](CCCCN)NC(=O)[C@H](CCCNC(=N)N)NC(=O)[C@@H](N)CC(C)C)[C@@H](C)CC)C(=O)NCC(=O)N[C@@H](CCC(N)=O)C(=O)N[C@@H](CCCCN)C(=O)N[C@H](C(=O)N[C@@H](CCC(N)=O)C(=O)NCC(=O)N[C@@H](Cc1ccccc1)C(=O)N[C@H](C(=O)N1CCC[C@H]1C(=O)N[C@@H](CCCCN)C(=O)N[C@@H](CC(C)C)C(=O)O)C(C)C)[C@@H](C)CC
lethal concentration (inhibition zone; ATCC 25922): 1.63 µM

CCCC(=O)NCC(=O)N[C@@H](CC(C)C)C(=O)N[C@@H](CC(C)C)C(=O)N[C@@H](CCCCN)C(=O)N[C@@H](CCCNC(=N)N)C(=O)N[C@H](C(=O)N[C@@H](CCCCN)C(=O)N[C@H](C(=O)N[C@@H](CC(C)C)C(=O)N[C@@H](CC(C)C)C(=O)NCCCC[C@H](NC(=O)[C@H](CC(C)C)NC(=O)[C@H](CC(C)C)NC(=O)[C@@H](NC(=O)[C@H](CCCCN)NC(=O)[C@@H](NC(=O)[C@H](CCCNC(=N)N)NC(=O)[C@H](CCCCN)NC(=O)[C@H](CC(C)C)NC(=O)[C@H](CC(C)C)NC(=O)CNC(=O)CCC)[C@@H](C)CC)[C@@H](C)O)C(N)=O)[C@@H](C)O)[C@@H](C)CC
FIC index (checkerboard; ATCC 25922; added: rifampicin): 0.312

CCCCCCCCCCCCCC(=O)N[C@@H](Cc1c[nH]c2ccccc12)C(=O)N[C@@H](CCCCN)C(=O)N[C@@H](CCCCN)C(=O)N[C@@H](CCCCN)C(=O)N[C@@H](CCCCN)C(N)=O
MBC (K12): 64 µg/mL

CC[C@H](C)[C@H](NC(=O)[C@H](CCCCN)NC(=O)[C@H](CCCCN)NC(=O)[C@H](CC(C)C)NC(=O)[C@H](CCCCN)NC(=O)[C@H](CCC(=O)O)NC(=O)[C@H](CCCCN)NC(=O)[C@@H](NC(=O)[C@H](CCCCN)NC(=O)[C@H](CC(N)=O)NC(=O)[C@H](CCCNC(=N)N)NC(=O)[C@H](Cc1ccccc1)NC(=O)[C@H](CCCCN)NC(=O)[C@H](CCCNC(=N)N)NC(=O)[C@H](CC(C)C)NC(=O)[C@H](CCCNC(=N)N)NC(=O)[C@H](CCCCN)NC(=O)[C@H](CCCNC(=N)N)NC(=O)[C@H](CC(C)C)NC(=O)[C@@H](N)CC(C)C)[C@@H](C)CC)C(=O)NCC(=O)N[C@@H](CCC(N)=O)C(=O)N[C@@H](CCCCN)C(=O)N[C@H](C(=O)N[C@@H](CCC(N)=O)C(=O)NCC(=O)N[C@@H](Cc1ccccc1)C(=O)N[C@H](C(=O)N1CCC[C@H]1C(=O)N[C@@H](CCCCN)C(=O)N[C@@H](CC(C)C)C(=O)N[C@H](C(=O)N1CCC[C@H]1C(=O)N[C@@H](CCCNC(=N)N)C(=O)N[C@H](C(=O)N[C@@H](CCC(=O)O)C(=O)N[C@@H](CO)C(=O)O)[C@@H](C)O)C(C)C)C(C)C)[C@@H](C)CC
lethal concentration (inhibition zone; D. J45b): 2.67 µM

CN1CC(=O)N=C1N.C[C@H](CCC(=O)O)[C@H]1CC[C@H]2[C@@H]3[C@@H](O)C[C@@H]4C[C@H](O)CC[C@]4(C)[C@H]3CC[C@]12C
inhibition zone diameter (TISTR 117; 1 mg per disc, 18 to 24 h, 37 °C, 6 mm disc): 7.1 ± 0.1 mm

CCCCCCCCCCCCCCC(=O)N[C@@H](CCCCN)C(=O)N[C@@H](CCCCN)C(=O)N[C@@H](CCCCN)C(=O)N[C@@H](CCCCN)C(=O)N[C@@H](Cc1c[nH]cn1)C(N)=O
MBC (K12): 32 µg/mL

CC[C@H](C)[C@H](NC(=O)[C@H](CCCNC(=N)N)NC(=O)[C@H](CCCCN)NC(=O)[C@H](CC(C)C)NC(=O)[C@H](CC(C)C)NC(=O)CN)C(=O)N[C@@H](CCCCN)C(=O)N[C@H](C(=O)N[C@@H](CC(C)C)C(=O)N[C@@H](CC(C)C)C(=O)NCCCC[C@H](NC(=O)[C@H](CCCCNC(=O)[C@H](CC(C)C)NC(=O)[C@H](CC(C)C)NC(=O)[C@@H](NC(=O)[C@H](CCCCN)NC(=O)[C@@H](NC(=O)[C@H](CCCNC(=N)N)NC(=O)[C@H](CCCCN)NC(=O)[C@H](CC(C)C)NC(=O)[C@H](CC(C)C)NC(=O)CN)[C@@H](C)CC)[C@@H](C)O)NC(=O)[C@H](CC(C)C)NC(=O)[C@H](CC(C)C)NC(=O)[C@@H](NC(=O)[C@H](CCCCN)NC(=O)[C@@H](NC(=O)[C@H](CCCNC(=N)N)NC(=O)[C@H](CCCCN)NC(=O)[C@H](CC(C)C)NC(=O)[C@H](CC(C)C)NC(=O)CN)[C@@H](C)CC)[C@@H](C)O)C(N)=O)[C@@H](C)O
FIC index (checkerboard; ATCC 25922; added: polymyxin B): 0.25

CC[C@H](C)[C@H](NC(=O)[C@H](CCCCN)NC(=O)[C@H](CCCCN)NC(=O)[C@H](CC(C)C)NC(=O)[C@H](CCCCN)NC(=O)[C@H](CCC(=O)O)NC(=O)[C@H](CCCCN)NC(=O)[C@@H](NC(=O)[C@H](CCCCN)NC(=O)[C@H](CC(N)=O)NC(=O)[C@H](CCCNC(=N)N)NC(=O)[C@H](Cc1ccccc1)NC(=O)[C@H](CCCCN)NC(=O)[C@H](CCCNC(=N)N)NC(=O)[C@H](CC(C)C)NC(=O)[C@H](CCCNC(=N)N)NC(=O)[C@H](CCCCN)NC(=O)[C@H](CCCNC(=N)N)NC(=O)[C@H](CC(C)C)NC(=O)CN)[C@@H](C)CC)C(=O)NCC(=O)N[C@@H](CCC(N)=O)C(=O)N[C@@H](CCCCN)C(=O)N[C@H](C(=O)N[C@@H](CCC(N)=O)C(=O)NCC(=O)N[C@@H](Cc1ccccc1)C(=O)N[C@H](C(=O)N1CCC[C@H]1C(=O)N[C@@H](CCCCN)C(=O)N[C@@H](CC(C)C)C(=O)N[C@@H](C)C(=O)N1CCC[C@H]1C(=O)N[C@@H](CCCNC(=N)N)C(=O)N[C@H](C(=O)N[C@@H](CC(=O)O)C(=O)N[C@@H](Cc1ccc(O)cc1)C(=O)O)[C@@H](C)O)C(C)C)[C@@H](C)CC
lethal concentration (inhibition zone; ATCC 25922): 1.46 µM

CC[C@H](C)[C@H](NC(=O)[C@H](CCCCN)NC(=O)[C@H](CCCCN)NC(=O)[C@H](Cc1c[nH]c2ccccc12)NC(=O)[C@H](CC(N)=O)NC(=O)[C@@H](N)C(C)C)C(=O)N[C@@H](CC(C)C)C(=O)NCC(=O)N[C@@H](CCCCN)C(=O)N[C@H](C(=O)N[C@H](C(=O)N[C@@H](CCCCN)C(=O)N[C@H](C(=O)N[C@H](C(=O)N[C@@H](CCCCN)C(N)=O)C(C)C)C(C)C)[C@@H](C)CC)[C@@H](C)CC
LC99.9 (ATCC 8937, RPMI medium; 24 h, 37 °C): 1.9 to 3.7 µM

O=C(O)[C@@H]1Cc2c([nH]c3ccccc23)[C@@H](c2ccc(F)cc2Cl)N1
growth inhibition (BL21(DE3); 250 µM, 18 h): 0%

CC[C@H](C)[C@H](NC(=O)[C@H](CO)NC(=O)[C@H](CO)NC(=O)[C@H](Cc1ccccc1)NC(=O)CN)C(=O)N[C@@H](Cc1ccccc1)C(=O)N[C@@H](CCCNC(=N)N)C(=O)NCC(=O)N[C@H](C(=O)N[C@@H](C)C(=O)N[C@@H](CCCCN)C(N)=O)C(C)C
MBC (ATCC 8739; added: 150 mM NaCl): > 128 µM

CCCCCC(=O)NCC(=O)N[C@@H](CC(C)C)C(=O)N[C@@H](CC(C)C)C(=O)N[C@@H](CCCCN)C(=O)N[C@@H](CCCNC(=N)N)C(=O)N[C@H](C(=O)N[C@@H](CCCCN)C(=O)N[C@H](C(=O)N[C@@H](CC(C)C)C(=O)N[C@@H](CC(C)C)C(=O)NCCCC[C@H](NC(=O)[C@H](CC(C)C)NC(=O)[C@H](CC(C)C)NC(=O)[C@@H](NC(=O)[C@H](CCCCN)NC(=O)[C@@H](NC(=O)[C@H](CCCNC(=N)N)NC(=O)[C@H](CCCCN)NC(=O)[C@H](CC(C)C)NC(=O)[C@H](CC(C)C)NC(=O)CNC(=O)CCCCC)[C@@H](C)CC)[C@@H](C)O)C(N)=O)[C@@H](C)O)[C@@H](C)CC
FIC index (checkerboard; ATCC 25922; added: polymyxin B): 0.125

Some of these lines once more:
CC[C@H](C)[C@H](NC(=O)[C@H](CCCCN)NC(=O)[C@H](CCCCN)NC(=O)[C@H](CC(C)C)NC(=O)[C@H](CCCCN)NC(=O)[C@H](CCC(=O)O)NC(=O)[C@H](CCCCN)NC(=O)[C@@H](NC(=O)[C@H](CCCCN)NC(=O)[C@H](CC(N)=O)NC(=O)[C@H](CCCNC(=N)N)NC(=O)[C@H](Cc1ccccc1)NC(=O)[C@H](CCCCN)NC(=O)[C@H](CCCNC(=N)N)NC(=O)[C@H](CC(C)C)NC(=O)[C@H](CCCNC(=N)N)NC(=O)[C@H](CCCCN)NC(=O)[C@H](CCCNC(=N)N)NC(=O)[C@@H](N)CC(C)C)[C@@H](C)CC)C(=O)NCC(=O)N[C@@H](CCC(N)=O)C(=O)N[C@@H](CCCCN)C(=O)N[C@H](C(=O)N[C@@H](CCC(N)=O)C(=O)NCC(=O)N[C@@H](Cc1ccccc1)C(=O)N[C@H](C(=O)N1CCC[C@H]1C(=O)N[C@@H](CCCCN)C(=O)N[C@@H](CC(C)C)C(=O)O)C(C)C)[C@@H](C)CC
lethal concentration (inhibition zone; ATCC 25922): 1.63 µM
